{"data": "Experimental data collected from several papers", "cell line": "SK-OV-3", "note": "Compare with care: the assays were run in different laboratories. ± marks the error that the study gave."}
{"Compound": "CCn1cc(-c2cc(Cn3ccnc3)cc3c2CCN([C@H](c2cc(OC)ccn2)C2CC2)C3=O)c(C(F)(F)F)n1", "assay": "cell growth, inhibitor", "setting": "120 h", "quantity": "EC50", "value": "> 30 µM"}
{"Compound": "Cn1cc(-c2ccc(F)c(C(F)(F)F)c2)nc1C1CCN(c2ncnc3[nH]ncc23)CC1", "assay": "ATP", "system": "2D monolayer culture", "setting": "10 µM, 4 days", "how to read": "relative to: untreated", "quantity": "relative cell number", "value": "104%"}
{"Compound": "CC(=O)O[C@H]1C(=O)[C@@]2(C)[C@H]([C@H](OC(=O)c3ccccc3)[C@]3(O)C[C@H](OC(=O)[C@H](O)[C@@H](NC(=O)c4ccccc4)c4ccccc4)C(C)=C1C3(C)C)[C@]1(OC(C)=O)CO[C@@H]1C[C@@H]2O", "assay": "cell viability, CCK-8", "setting": "48 h, single drug", "quantity": "IC50", "value": "8.29 ± 0.94 µM"}
{"Compound": "C[C@H](Nc1ccc2c(c1)OCCn1cc(N3C(=O)OC[C@H]3C(F)F)nc1-2)C(N)=O", "assay": "resazurin growth rate inhibition", "setting": "72 h", "quantity": "GR50", "value": "> 5 µM"}
{"Compound": "C[C@H](Nc1ccc2c(c1)OCCn1cc(N3C(=O)OC[C@H]3C(F)F)nc1-2)C(N)=O", "assay": "growth rate inhibition, CellTiter-Glo", "setting": "120 h", "quantity": "IC50", "value": "0.251 µM"}
{"Compound": "NNc1nc(-c2ccc(Cl)cc2)c2c(NC(=O)c3ccccc3)nnc-2[nH]1", "assay": "SRB", "setting": "10 µM, NCI60 single-dose screen", "how to read": "relative to: untreated", "quantity": "cell growth", "value": "108%"}
{"Compound": "C=CC(=O)N1CCC(C(=O)N(C)CC(=O)N2CCN(c3nc(-c4cnc(N)nc4C(F)F)nc(N4CCOCC4)n3)CC2)CC1", "assay": "Akt phosphorylation, inhibitor, in-cell western, refers to: Akt pSer473", "setting": "1 h", "quantity": "IC50", "value": "0.0857 µM"}
{"Compound": "Clc1ccc(C2(c3ccc(-c4cn[nH]c4)cc3)CCNCC2)cc1", "assay": "ATP", "system": "2D monolayer culture", "setting": "0.01 µM, 4 days", "how to read": "relative to: untreated", "quantity": "relative cell number", "value": "105%"}
{"Compound": "C=CC(=O)N1CCC(CCCC(=O)N2CCN(c3nc(-c4cnc(N)nc4C(F)F)nc(N4CCOCC4)n3)CC2)CC1", "assay": "Akt phosphorylation, inhibitor, in-cell western, refers to: Akt pSer473", "quantity": "IC50", "value": "0.0214 µM"}
{"Compound": "CO[C@@H]1C[C@@H](C[C@H]2CC[C@H](C)[C@H]([C@@H](C)C(=O)O)O2)O[C@]2(O[C@](C)([C@H]3CC[C@@](C)([C@@H]4O[C@@H]([C@H]5O[C@@](O)(CO)[C@H](C)C[C@@H]5C)C[C@@H]4C)O3)C[C@H]2C)[C@@H]1C", "assay": "FLICA", "setting": "concentration not given", "quantity": "caspase-1 activation", "value": "positive"}
{"Compound": "C#C[C@@]1(O)[C@@H](CO)O[C@@H](n2ccc3c(N)ncnc32)[C@@H]1O", "assay": "SRB", "setting": "NCI-60 screen", "quantity": "TGI", "value": "5.24 µM"}
{"Compound": "O=C1NC(=NCc2cccs2)S/C1=C\\c1ccc2ncccc2c1", "assay": "MTS", "setting": "NCI60 panel", "quantity": "IC50", "value": "> 10 µM"}
{"Compound": "CC/C(=N\\NC(=O)NCc1cccc(O)c1)c1ccc(O)c(C)c1O", "assay": "Western blot", "setting": "10 µM, 3 h, 2D culture, unit not given", "how to read": "relative to: DMSO", "quantity": "TAZ band intensity", "value": "0.12 ± 0.07"}
{"Compound": "C=CC(=O)N1CCC(COCC(=O)N2CCN(c3nc(-c4cnc(N)nc4C(F)F)nc(N4CCOCC4)n3)CC2)CC1", "assay": "Akt phosphorylation, inhibitor, in-cell western, refers to: Akt pSer473", "setting": "1 h", "quantity": "IC50", "value": "0.0193 µM"}
{"Compound": "C#C[C@@]1(O)[C@@H](CO)O[C@@H](n2cc(F)c3c(N)ncnc32)[C@@H]1O", "assay": "SRB", "setting": "NCI-60 screen", "quantity": "TGI", "value": "2.09 µM"}
{"Compound": "CC/C(=N\\NC(=O)C(C)Nc1ccccc1)c1ccc(O)c(C)c1O (stereo not shown)", "assay": "Western blot, refers to: TAZ", "setting": "10 µM, 3 h, 3D gellan gum culture, unit not given", "how to read": "relative to: β-actin", "quantity": "protein level", "value": "1.66 ± 0.14"}
{"Compound": "C=CC(=O)N1CCC(C(=O)NCC(=O)N2CCN(c3nc(-c4cnc(N)nc4C(F)F)nc(N4CCOCC4)n3)CC2)CC1", "assay": "Akt phosphorylation, inhibitor, in-cell western, refers to: Akt pSer473", "setting": "1 h", "quantity": "IC50", "value": "0.0817 µM"}
{"Compound": "COc1cnc2cccc(N3CCc4c(cc(Cn5ccnc5C)cc4-c4cn(C)nc4C(F)(F)F)C3=O)c2c1", "assay": "cell growth, inhibitor", "setting": "120 h", "quantity": "EC50", "value": "> 30 µM"}
{"Compound": "O=C(O)c1ccc(-c2c[nH]c3ncc(-c4ccccc4)cc23)cc1C1CCCC1", "assay": "ATP", "setting": "0.1 µM, 4 days, 3D gellan gum culture", "how to read": "relative to: untreated", "quantity": "relative cell number", "value": "96.6%"}
{"Compound": "C=CC(=O)N1CCC(COCC(=O)N2CCN(c3nc(-c4cnc(N)nc4C(F)F)nc(N4CCOC[C@@H]4C)n3)CC2)CC1", "assay": "western blot, refers to: phospho-S6 Ser235/Ser236", "setting": "2 h", "quantity": "IC50", "value": "0.0367 µM"}
{"Compound": "Cc1cc(C)n(-c2nc(-c3ccc(Cl)cc3)c3c(NC(=O)c4ccccc4)nnc-3[nH]2)n1", "assay": "SRB", "setting": "10 µM, NCI60 single-dose screen", "how to read": "relative to: untreated", "quantity": "cell growth", "value": "110%"}
{"Compound": "CCn1c(-c2nonc2N)nc2cncc(CNC3CCNCC3)c21", "assay": "ATP", "setting": "1 µM, 4 days, 3D gellan gum culture", "how to read": "relative to: untreated", "quantity": "relative cell number", "value": "69.4%"}
{"Compound": "CSc1nc(-c2ccc(Cl)cc2)c2c(NC(=O)c3ccccc3)nnc-2[nH]1", "assay": "SRB", "setting": "10 µM, NCI60 single-dose screen", "how to read": "relative to: untreated", "quantity": "cell growth", "value": "82.6%"}
{"Compound": "C=CC(=O)N1CCC(CN(C)CC(=O)N2CCN(c3nc(-c4cnc(N)nc4C(F)F)nc(N4CCOCC4)n3)CC2)CC1", "assay": "Akt phosphorylation, inhibitor, in-cell western, refers to: Akt pSer473", "setting": "1 h", "quantity": "IC50", "value": "0.0383 µM"}
{"Compound": "CCOC(=O)CSc1nc(-c2ccc(Cl)cc2)c2c(NC(=O)c3ccccc3)nnc-2[nH]1", "assay": "SRB", "setting": "10 µM, NCI60 single-dose screen", "how to read": "relative to: untreated", "quantity": "cell growth", "value": "94.5%"}
{"Compound": "Cc1nc(NC(=O)N2CCC[C@H]2C(N)=O)sc1-c1ccnc(C(C)(C)C(F)(F)F)c1", "assay": "western blot, refers to: phospho-S6 Ser235/Ser236", "setting": "2 h", "quantity": "IC50", "value": "0.162 µM"}
{"Compound": "O=C(Nc1nnc2n3c(=S)[nH][nH]c3nc(-c3ccc(Cl)cc3)c1-2)c1ccccc1", "assay": "SRB", "setting": "10 µM, NCI60 single-dose screen", "how to read": "relative to: untreated", "quantity": "cell growth", "value": "99.3%"}
{"Compound": "Cn1cncc1C1=CN(c2ncnc3[nH]cnc23)CCS1", "setting": "ovarian cancer", "quantity": "TGI", "value": "81.3 µM"}
{"note": "A few entries again:"}
{"Compound": "Cn1cc(-c2ccc(F)c(C(F)(F)F)c2)nc1C1CCN(c2ncnc3[nH]ncc23)CC1", "assay": "ATP", "system": "2D monolayer culture", "setting": "10 µM, 4 days", "how to read": "relative to: untreated", "quantity": "relative cell number", "value": "104%"}
{"Compound": "CC(=O)O[C@H]1C(=O)[C@@]2(C)[C@H]([C@H](OC(=O)c3ccccc3)[C@]3(O)C[C@H](OC(=O)[C@H](O)[C@@H](NC(=O)c4ccccc4)c4ccccc4)C(C)=C1C3(C)C)[C@]1(OC(C)=O)CO[C@@H]1C[C@@H]2O", "assay": "cell viability, CCK-8", "setting": "48 h, single drug", "quantity": "IC50", "value": "8.29 ± 0.94 µM"}
{"Compound": "C[C@H](Nc1ccc2c(c1)OCCn1cc(N3C(=O)OC[C@H]3C(F)F)nc1-2)C(N)=O", "assay": "resazurin growth rate inhibition", "setting": "72 h", "quantity": "GR50", "value": "> 5 µM"}
